Measured values gathered from unrelated publications.
Every numbered part comes from another study and shows a few of its results, in no order. Substitutions count along the parent as printed.

Series 1 — technique: DHFR PCA, deep sequencing; sample: yeast; with: (+)-ABA 58 µM; baseline: wild-type fitted maximum; reading: higher = stronger binding; measurement: relative binding score
Target: ABI1, truncated, D143A, DHFR fusion (Arabidopsis thaliana)
Notes: methotrexate growth selection, single substitutions
Starting sequence: PYL1, truncated, DHFR fusion (Arabidopsis thaliana); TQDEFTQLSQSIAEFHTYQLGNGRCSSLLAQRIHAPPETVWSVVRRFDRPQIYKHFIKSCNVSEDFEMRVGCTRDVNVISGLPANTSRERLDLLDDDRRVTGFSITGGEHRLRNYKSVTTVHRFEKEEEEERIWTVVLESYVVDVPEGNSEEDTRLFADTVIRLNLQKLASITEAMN; partner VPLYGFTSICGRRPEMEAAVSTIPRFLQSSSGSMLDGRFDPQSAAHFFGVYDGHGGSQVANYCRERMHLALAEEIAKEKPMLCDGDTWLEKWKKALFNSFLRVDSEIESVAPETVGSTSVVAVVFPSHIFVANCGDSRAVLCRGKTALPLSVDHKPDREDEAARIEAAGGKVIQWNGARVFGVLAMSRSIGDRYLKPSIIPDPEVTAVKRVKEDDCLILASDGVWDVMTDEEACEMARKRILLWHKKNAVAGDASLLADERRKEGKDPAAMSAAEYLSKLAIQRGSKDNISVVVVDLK
N165H: 30.1%
F157E: 1.55%
Q19K: 97.4%
M176R: 87.2%
E174F: 46.2%
A158N: 45.3%
L82V: 70.2%
D95P: -6.46%
P50W: -6.55%
I52M: 85.6%
A158F: 5.44%
I52W: 66.7%
R132L: 91%

Series 2 — target: CCNA2, cyclin fold, Cln2 fusion (human); technique: yeast growth competition, sequencing; sample: yeast; notes: weak parent motif; baseline: not given; reading: higher = stronger binding; measurement: normalised enrichment score
Starting sequence: PKN2 docking peptide (human); DSTVTKLDFDLEP
DSTATKLDFDLEP [V4A]: 0.089
DATVTKLDFDLEP [S2A]: -0.335
DSTVTKLAFDLEP [D8A]: -0.395
DSTVTKLDADLEP [F9A]: -0.531
DSTVTKADFDLEP [L7A]: -0.514
DSTVTKLDFDLAP [E12A]: -0.489

Series 3 — technique: RNA Bind-n-Seq; molecule type: RNA; sample: in vitro; tested at: not given; notes: RNA with constant flanks, ends assumed; baseline: input RNA pool; reading: higher = stronger binding; measurement: bound/input enrichment
Target: RING finger protein unkempt homolog, zinc fingers 1-6, GST-SBP tag (UNK, Homo sapiens, UniProt Q9C0B0, residues 30-357)
Constant ends, left off below: GGGAGUUCUACAGUCCGACGAUC … CAACAGAGGAUUGAGCAUCA
Residues (chain): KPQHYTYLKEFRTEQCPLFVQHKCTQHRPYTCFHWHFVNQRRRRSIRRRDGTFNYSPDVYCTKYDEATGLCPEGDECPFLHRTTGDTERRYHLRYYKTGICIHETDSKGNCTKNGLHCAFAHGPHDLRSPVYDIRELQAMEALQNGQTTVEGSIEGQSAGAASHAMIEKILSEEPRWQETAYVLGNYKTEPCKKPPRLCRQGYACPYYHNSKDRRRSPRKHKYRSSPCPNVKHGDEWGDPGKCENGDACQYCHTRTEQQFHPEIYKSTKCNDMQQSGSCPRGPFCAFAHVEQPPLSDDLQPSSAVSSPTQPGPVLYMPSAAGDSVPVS
AUCCACAGUCUGAUGGGCAACUUUGAAAAUGCUGUGGACUACUUCCACACAGCCCUUGGUCUCCGGCGAGAUGAUACAUUUUCUGUUACAAUGCUUGGUCAUUGCAUCGAAAUGUACAUU: 0.123 ratio
UGGCAAGGGUUGUGUAAAUCUACAUGGGGUCACUGCUCUAUAUACAAUAAGAACCCACCUUCCGGAUUUUCUUUUAGAAAAUUGUAUAUGCAGCUAGAUGAGGGAAGCCUCACCUUUAAU: 1.26 ratio
CCUCUGGCCACAUAUGCCCCUGUCAUCUCUGCUGAGAAAGCCUACCACGAACAGCUUACUGCCGCAGAGAUCACCAAUGCUUGCUUUGAGCCAGCCAACCAGAUGGUGAAAUGUGACCCU: 0.0939 ratio
AUUGAGUGCGGCUGGAAGGAUCAGCUAAAGGCACACUGUAAAGGUAAUUAAAGAAAAAGGACCCGAACACGUUACUGUUGAUGACUUGGUGGCUGAAAUCACUCCAAAAGGCAGAGCCCU: 0.111 ratio
GUUAAUCAUGAUUCAGAAGAUCUAGCUUCACCCUCUGAGUAUCCAGAAAAUGGAGAAAGAUUCCGCUUCCUGAGCAAACCUGUUGAUGAGAACAAUCAGCAGGAUGGAGAAGAUGACUCU: 0.0855 ratio
GUUUACAUCUUUGGUGACGGACGAGGCCUUAUAGAAGGAAAUGACAUUUAUGGUAAUGCGUCCGCAGGAAUUCAGAUCAGGACAAACAGUUGUCCUAUUGUUCGACAUAACAAAAUUCAU: 0.231 ratio
AACGGUGCCCCUGCAUGUGCUCAGAAGCUCUAUGCAGAACUGUGCCAAGGCAUCGUGGACACCGCCAUUUCCAGUGUCUUCCCACCCCCAGAUGUGGAGCAACCUCAGACCCAGCCAGCU: 0.159 ratio
AGAGAAAUCCUGUCAGAUGACAAGCAUGACUGGGAGCAGAGAGUAAAUGCUCUAAAAAAGAUCCGAUCGUUACUCUUGGCUGGGGCUGCUGAGUACGAUAACUUCUUUCAACACUUGCGU: 0.094 ratio
UCCACAGAAGCCUCAUCCCAAGAACAUCAACACAGAGCUCCCGACGCUGGGAUUGUAUCCCGUAUACCUUUACAAAGACUUUUUAAACCAAAGGACAUGGACUGUUGGGAAGUUCAGACU: 0.353 ratio
AAGCUCCCGAAGGCAUUAUACCCGGUCACGGUCUCGCUCCCGCUCCCAUAGACGAUCACGCCGCAGGUCUUACAGUCGAGAUUAUCGUAGACGGCACAGCCACAGCCAUUCUCCCAUGUC: 1.39 ratio

Series 4 — technique: protein binding microarray; molecule type: double-stranded DNA, one strand shown; sample: in vitro; tested at: not given; baseline: not given; reading: higher = stronger binding; measurement: E-score
Target: Histone acetyltransferase KAT6A, winged helix 2, GST fusion (KAT6A, Homo sapiens, UniProt Q92794, residues 85-181)
Notes: 8-mer, flanks averaged, mean of 2 arrays, mostly near background
Construct (chain): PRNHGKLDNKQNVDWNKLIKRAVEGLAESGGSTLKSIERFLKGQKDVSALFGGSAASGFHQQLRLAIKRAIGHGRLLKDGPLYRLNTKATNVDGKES
AATTCTCT: -0.0229
CCCCTTTC: -0.0709
AGATGCAC: 0.0324
CGGGTTTC: 0.245
ACAAACAG: 0.0114
ATAAGTAA: -0.0664
ATAGAGAT: -0.00509
TACGAGGA: -0.0997
CGTCACGA: -0.0266
CCTCGTCA: 0.0937
AGTGTCAC: 0.0283
GTTACAGA: -0.221
GTCACTCA: 0.0027
CGCACGCC: 0.231
AGCTTATC: -0.0911
AGGGCGCC: 0.145
CTACTCAG: 0.0671
CTGAGCTA: -0.0759
CACATAGA: -0.0536
AAAGTTGA: -0.106
AGCGAACA: 0.194

Series 5 — technique: protein-binding microarray; molecule type: double-stranded DNA, one strand shown; sample: in vitro; tested at: 2540 nM top; notes: 60-bp whole probe; with: salmon DNA 0.4 mg/ml; baseline: random background probes; reading: higher = stronger binding; measurement: fitted relative affinity; constant ends, left off below: GCCTAGCAC … GTCTTGATTCGCTTGACGCTGCTG
Target: Interferon regulatory factor 3, full length, phosphomimetic (IRF3, Homo sapiens, UniProt Q14653, residues 1-427, S386D/S396D/S398D/S402D/T404D/S405D)
Residues (chain): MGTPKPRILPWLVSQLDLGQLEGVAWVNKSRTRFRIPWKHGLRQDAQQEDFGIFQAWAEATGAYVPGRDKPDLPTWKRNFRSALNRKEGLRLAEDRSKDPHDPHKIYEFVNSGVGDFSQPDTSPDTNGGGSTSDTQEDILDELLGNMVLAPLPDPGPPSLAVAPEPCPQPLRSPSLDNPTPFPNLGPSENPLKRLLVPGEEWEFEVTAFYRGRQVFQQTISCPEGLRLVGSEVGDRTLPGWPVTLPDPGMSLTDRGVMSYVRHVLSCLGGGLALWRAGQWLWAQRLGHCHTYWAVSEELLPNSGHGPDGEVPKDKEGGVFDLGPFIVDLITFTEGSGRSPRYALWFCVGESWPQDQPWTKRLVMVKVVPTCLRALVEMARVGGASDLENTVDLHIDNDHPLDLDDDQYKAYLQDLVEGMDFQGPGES
GACGGTATCGGGTATCGGGGCGTGCTA: 1.76 z-score
GACGATTGCAGTCTCGAGACGTGCTAG: 0.501 z-score
GACGATTGCGGGTTTCGAGACGTGCTA: 0.885 z-score
GTCCTTTTCTTTACTGATGGGTGCTAG: 3.79 z-score
TCACTCATGGCTTTGTAGATGTGCTAG: -0.499 z-score
TTAGATCTCAGTATCGATAAGTGCTAG: 0.806 z-score
GACGGACTGGGGTTTCGGGGCGTGCTA: 0.108 z-score
TTTTTTTTTTTTTTTTGTATGTGCTAG: 1.53 z-score
AGGGTGTTCTTTTCTGTTGTCGTGCTA: 0.949 z-score
TTAGGTTTCGACTATCGGTGAGTGCTA: 2.36 z-score
TTAGATTTCGGTTCCGATTAGTGCTAG: 6.87 z-score

A few entries again (series 2):
DSTVTKLAFDLEP [D8A]: -0.395
DATVTKLDFDLEP [S2A]: -0.335
DSTVTKADFDLEP [L7A]: -0.514
DSTATKLDFDLEP [V4A]: 0.089
DSTVTKLDADLEP [F9A]: -0.531
DSTVTKLDFDLAP [E12A]: -0.489
